# Experimental data gathered from unrelated publications.
# Compare with care: the assays were run in different laboratories. ± marks the error that the study gave.
Structure (SMILES),test,test system,setting,how to read,endpoint,value
O=c1c2cc(Cl)ccc2sc2c(NCc3ccccc3)nc3ccccc3c12,,BALB/c nude mice,"i.p., 10 mg/kg",,body weight gain,4.79 ± 0.53%
CN(C(=O)Cc1ccc(Cl)c(Cl)c1)C(CN1CCCC1)c1ccccc1 (stereo in doubt),,human liver microsomes,,,intrinsic clearance,2.2 mL/min/g
C[C@@H]1CC[C@H]2[C@@H](C)CO[C@@H]3O[C@@]4(C)CC[C@@H]1[C@]32OO4,measured: compound,"rat, plasma","50.0 ng/mL spiked, 24 h, autosampler at 4 °C",,stability accuracy,93.4%
[2H]C([2H])([2H])C([2H])([2H])C([2H])([2H])OC(C(=O)OC1CCNCC1)(c1ccccc1)c1ccccc1,,"healthy Japanese male subjects, plasma","oral, 8 mg, day 1, mean",,tmax,6 h
O=c1oc2c(O)c(O)ccc2c2cc(O)c(O)cc12,potentiometric titration,"water, extrapolated from methanol/water",25 °C,,pKa1,6.12
CC(=O)[O-].F[P-](F)(F)(F)(F)F.[Co+2].c1ccc(CN2CCCN3CCN(CCCN(Cc4ccccc4)CC3)CC2)cc1,"cyclic voltammetry, measured: first Co2+/Co3+ couple",acetonitrile,,reference: SHE,E1/2,0.392 V
CCCCCCCCCCCCCCCC(=O)OCC(CSC[C@H](N)C(=O)N[C@@H](CO)C(=O)N[C@@H](CCCCN)C(=O)N[C@@H](CCCCN)C(=O)N[C@@H](CCCCN)C(=O)N[C@@H](CCCCN)C(=O)NCCCCCC(=O)N[C@@H](CCCCN)C(=O)N[C@@H](CC(C)C)C(=O)N[C@H](C(=O)N[C@@H](Cc1ccccc1)C(=O)N[C@@H](Cc1ccccc1)C(=O)N[C@@H](Cc1ccc2ccccc2c1)C(=O)O)C(C)C)OC(=O)CCCCCCCCCCCCCCC (stereo partly shown),,C57BL/6J mouse,"intraperitoneal, 15 mg/kg twice",,serum creatinine,increased
CC(C)[C@H](NC(=O)CNC(=O)[C@H](CCC(N)=O)NC(=O)[C@H](C)N)C(=O)O,,healthy male volunteers,"intravenous, 15 mg/kg/h, 2 h, with: LPS 2 ng/kg",,discontinuation due to AE,0%
CC1COC2=C1C(=O)C(=O)c1c2ccc2c1C(OC(=O)CNC(=O)C(N)CCC(=O)O)CCC2(C)C (mixture of isomers),,water,,,thermodynamic solubility,3.9 mg/mL
COc1ccc(C)cc1NC(=O)OC1CC2CCCC(C1)N2Cc1ccc(CC[18F])cc1 (stereo not shown),,"BALB/c mice, EMT6 tumour",2 h,reference: tumour over fat,tumour to tissue ratio,0.32
CSCC[C@@H]1NC(=O)[C@@H]2CSSC[C@H](NC(=O)[C@H](CO)NC(=O)[C@H](C)N)C(=O)N[C@@H](CCCNC(=N)N)C(=O)N[C@@H]([C@@H](C)O)C(=O)N3CCC[C@H]3C(=O)N[C@@H](CCCCN)C(=O)N[C@@H](CC(=O)O)C(=O)N[C@H]3CSSC[C@H](NC(=O)[C@H](CCCCN)NC(=O)[C@H](CCCNC(=N)N)NC(=O)[C@H](CC(N)=O)NC1=O)C(=O)N[C@@H](CCCCN)C(=O)N[C@H]1CSSC[C@H](NC(=O)[C@@H]4CCCN4C(=O)[C@H](CC(=O)O)NC(=O)[C@H](C)NC3=O)C(=O)N[C@@H](C)C(=O)N[C@@H](CCCCN)C(=O)N[C@@H](CCC(=O)O)C(=O)N[C@@H]([C@@H](C)O)C(=O)NCC(=O)N[C@@H](CSSC[C@@H](C(N)=O)NC(=O)[C@H](CCCNC(=N)N)NC(=O)[C@H](CC(N)=O)NC1=O)C(=O)N1CCC[C@H]1C(=O)N[C@@H](Cc1ccc(O)cc1)C(=O)NCC(=O)N[C@@H](CCCCN)C(=O)N2,,"DA rat pristane-induced arthritis, serum","subcutaneous, 0.1 mg/kg once weekly, 21 days",,CO2,21 mmol/L
O=C(O)CC[C@H](NC(=O)O[C@@H](CCCCNC(=O)c1ccc([18F])cc1)C(=O)O)C(=O)O,,"mouse, PC-3 PIP/flu xenografts, spleen",90 min,,tissue uptake,0.27 ± 0.04 %ID/g
CC[C@H](C)[C@H](NC(=O)[C@H](CC(=O)O)NC(=O)[C@H](CO)NC(=O)[C@H](CCC(N)=O)NC(=O)[C@H](C)NC(=O)[C@H](CC(=O)O)NC(=O)[C@H](CCC(=O)O)NC(=O)[C@H](Cc1c[nH]cn1)NC(=O)[C@H](Cc1ccc(O)cc1)NC(=O)[C@H](C)NC(=O)[C@H](CC(=O)O)NC(=O)[C@H](CCC(=O)O)NC(=O)[C@H](Cc1c[nH]cn1)NC(=O)[C@H](Cc1ccc(O)cc1)NC(=O)[C@H](C)NC(=O)[C@H](CC(=O)O)NC(=O)[C@H](CCC(=O)O)NC(=O)[C@H](Cc1c[nH]cn1)NC(=O)[C@H](Cc1ccc(O)cc1)NC(=O)[C@H](C)NC(=O)[C@H](CC(=O)O)NC(=O)[C@H](CCC(=O)O)NC(=O)[C@H](Cc1c[nH]cn1)NC(=O)[C@H](Cc1ccc(O)cc1)NC(=O)[C@H](C)NC(=O)[C@H](CC(=O)O)NC(=O)[C@H](CCC(=O)O)NC(=O)[C@H](Cc1c[nH]cn1)NC(=O)[C@@H](N)Cc1ccc(O)cc1)C(=O)N[C@H](C(=O)N[C@@H](C)C(=O)N[C@@H](Cc1c[nH]cn1)C(=O)N[C@@H](CC(C)C)C(=O)N[C@@H](CC(C)C)C(=O)O)C(C)C,,"mouse SN model, blood",dose not given,,BA share of white cells,2.4 ± 0.6%
Cc1nccc2c3ccccc3n(Cc3cccnc3)c12,OECD guideline,"Kunming mice, both sexes","oral, single dose, 14 days",,LD50,1430 mg/kg
CC[C@H](C)[C@@H]1NC(=O)[C@H](CCCCN)NC(=O)[C@H](CCCCN)NC(=O)[C@H](Cc2ccc(O)cc2)NC(=O)[C@H](CC(C)C)NC(=O)[C@@H]2CCCN2C(=O)[C@H](C)NC(=O)CNC(=O)CNC(=O)[C@H](CO)NC(=O)CNC(=O)CNC(=O)[C@H](CO)NC(=O)[C@H](CCC(=O)O)NC(=O)[C@H](CC(C)C)NC(=O)[C@H](CC(C)C)NC(=O)[C@H](CCCCN)NC(=O)[C@H](CCCCN)NC(=O)[C@H]([C@@H](C)CC)NC(=O)[C@H]([C@@H](C)CC)NC(=O)[C@H](CCCCN)NC(=O)[C@H](CCCCN)NC(=O)[C@H](Cc2ccc(O)cc2)NC(=O)[C@H](CC(C)C)NC(=O)[C@@H]2CCCN2C(=O)CNC(=O)CNC(=O)[C@@H](NC(=O)CN)CSSC[C@@H](C(N)=O)NC(=O)[C@H](CC(C)C)NC(=O)[C@H](CCCCN)NC(=O)[C@H](CCCCN)NC(=O)[C@H]([C@@H](C)CC)NC1=O,hemolysis,uninfected human erythrocytes,1 h,,HC10,25.7 ± 2.1 µM
CSCC[C@H](NC(=O)CNC(=O)[C@H](CC(=O)O)NC(=O)[C@@H](NC(=O)[C@@H](NC(=O)[C@@H](NC(=O)CNC(=O)[C@H](CCC(N)=O)NC(=O)[C@H](CCSC)NC(=O)[C@H](CC(=O)O)NC(=O)[C@H](C)NC(=O)[C@H](C)NC(=O)[C@@H](NC(=O)[C@H](CO)NC(=O)[C@@H](N)CC(C)C)[C@@H](C)O)C(C)C)C(C)C)[C@@H](C)O)C(=O)N[C@@H](C)C(=O)N[C@@H](CO)C(=O)NCC(=O)N[C@@H](CC(C)C)C(=O)N[C@@H](CC(=O)O)C(=O)N[C@@H](CCCCN)C(=O)N[C@@H](CC(=O)O)C(=O)N[C@@H](Cc1ccc(O)cc1)C(=O)N[C@@H](CC(C)C)C(=O)N[C@@H](CCCCN)C(=O)N1CCC[C@H]1C(=O)N[C@@H](CC(=O)O)C(=O)N[C@@H](CC(=O)O)C(=O)O,,"human, serum","intravenous, 2.5 mg/kg, patients, infusion",,Tmax,4.8 min
C#Cc1c(F)ccc2cc(O)cc(-c3ncc4c(N5CC6CCC(C5)N6C(=O)OCc5ccc(OC(=O)CCCC)cc5)nc(OC[C@@]56CCCN5C[C@H](F)C6)nc4c3F)c12,chemical stability,simulated intestinal fluid,"1 µM, 30 min",,compound remaining,20%
C/C=C/C=C/C/C=C/CCCCCCCc1cccc(O)c1O,,"female Kunming mice, tumour-bearing, liver","intravenous, 10 mg/kg, 0.5 h",,tissue concentration,30400 ± 3170 ng/g
CC1=CC=c2ccc3c4c2[N]1[Re](=[C]=O)(=[C]=O)(=[C]=O)([C]#[N+]c1ccc(Cl)cc1)[N]4C(C)=CC=3.O=S(=O)([O-])C(F)(F)F,cyclic voltammetry,acetonitrile,irreversible reduction,,cathodic peak potential,-1.29 V vs SCE
CC[C@H](C)C(=O)N1CCC(NC(=O)Nc2ccc(OC(F)(F)F)c(F)c2)CC1,,healthy volunteers,"oral, 2 mg single dose, 14 (unit not given)",,subjects with dyspnoea TEAE,16.7%
Cc1cc(-c2ccc3ccccc3c2)nnc1NCCN1CCN(C)CC1,,rat,"oral, dose not given",,AUC(0-inf),1.48 µg·h/mL
COC(=O)C[C@](O)(CCCC(C)(C)OC(C)=O)C(=O)O[C@@H]1C(OC)=C[C@]23CCCN2CCc2cc4c(cc2[C@H]13)OCO4,,"CD1 mouse, heart","oral, 1 mg/kg, 0.5 h",,tissue concentration,141 ng/mL
CN(C)C(CNC(=O)Nc1cc(C(F)(F)F)ccc1N1CCOCC1)c1ccncc1 (stereo not shown),,"mouse, serum","intraperitoneal, 240 mg/kg single dose",,serum total bilirubin,0.2 mg/dL
C=CCn1cnc2c(NCc3ccc(C)s3)nc(N[C@H](CC)CO)nc21,,,,,pKa1,5.53
c1ccc(C2(CCNC3CCC4(SCCS4)c4ccccc43)CCOC3(CCCC3)C2)nc1 (stereo not shown),,"Sprague-Dawley rat, plasma","intravenous, 0.5 mg/kg",,clearance,1.11 L/h/kg
CC1(C)C(=O)N(c2ccc(C#N)c(C(F)(F)F)c2)C(=S)N1c1ccc(C(N)=O)c(F)c1,,"human, male, plasma","oral, 160 mg, single dose, after high-fat meal",,MRT,403 ± 63.1 h
CC(C)[C@H](NC(=O)CNC(=O)[C@H](CCC(N)=O)NC(=O)[C@H](C)N)C(=O)O,,human,"continuous infusion, all dose groups",,tolerability,not toxic
CCNc1cc2[o+]c3cc(NCC)c(C)cc3c(-c3ccccc3C(=O)OCCOCC[18F])c2cc1C,,rat,60 min,reference: heart over lung,tissue uptake ratio,2.3
CCOC(=O)[C@@H]1Cc2c(cc([N+](=O)[O-])cc2[N+](=O)[O-])[C@H](O)[C@]12C(=O)Nc1ccc(Br)cc12,,"Sprague-Dawley rat, plasma","intravenous, 7.5 mg/kg",,Vd,7.36 L/kg
CCCCCCCCCCCCC(=O)O.O=C1CCCC2C3CCCN4CCCC(CN12)C34 (stereo not shown),electrical conductivity,water,"293.15 K, critical micelle concentration",,standard Gibbs energy of micellization,-29.4 kJ/mol
N=C(N)NCc1ccc(C(=O)NCCCC[C@H](NC(=O)N[C@@H](CCC(=O)O)C(=O)O)C(=O)O)cc1[131I],,"SCID mouse, PC-3 xenografts, liver",4 h,,tissue uptake,4.31 ± 3.08 %ID/g

# A few entries again:
Structure (SMILES),test,test system,setting,how to read,endpoint,value
CC[C@H](C)[C@H](NC(=O)[C@H](CC(=O)O)NC(=O)[C@H](CO)NC(=O)[C@H](CCC(N)=O)NC(=O)[C@H](C)NC(=O)[C@H](CC(=O)O)NC(=O)[C@H](CCC(=O)O)NC(=O)[C@H](Cc1c[nH]cn1)NC(=O)[C@H](Cc1ccc(O)cc1)NC(=O)[C@H](C)NC(=O)[C@H](CC(=O)O)NC(=O)[C@H](CCC(=O)O)NC(=O)[C@H](Cc1c[nH]cn1)NC(=O)[C@H](Cc1ccc(O)cc1)NC(=O)[C@H](C)NC(=O)[C@H](CC(=O)O)NC(=O)[C@H](CCC(=O)O)NC(=O)[C@H](Cc1c[nH]cn1)NC(=O)[C@H](Cc1ccc(O)cc1)NC(=O)[C@H](C)NC(=O)[C@H](CC(=O)O)NC(=O)[C@H](CCC(=O)O)NC(=O)[C@H](Cc1c[nH]cn1)NC(=O)[C@H](Cc1ccc(O)cc1)NC(=O)[C@H](C)NC(=O)[C@H](CC(=O)O)NC(=O)[C@H](CCC(=O)O)NC(=O)[C@H](Cc1c[nH]cn1)NC(=O)[C@@H](N)Cc1ccc(O)cc1)C(=O)N[C@H](C(=O)N[C@@H](C)C(=O)N[C@@H](Cc1c[nH]cn1)C(=O)N[C@@H](CC(C)C)C(=O)N[C@@H](CC(C)C)C(=O)O)C(C)C,,"mouse SN model, blood",dose not given,,BA share of white cells,2.4 ± 0.6%
C#Cc1c(F)ccc2cc(O)cc(-c3ncc4c(N5CC6CCC(C5)N6C(=O)OCc5ccc(OC(=O)CCCC)cc5)nc(OC[C@@]56CCCN5C[C@H](F)C6)nc4c3F)c12,chemical stability,simulated intestinal fluid,"1 µM, 30 min",,compound remaining,20%
